Measured values pooled from the literature.
± marks the error that the study gave.

| Structure (SMILES) | test | system | conditions | Tmax |
| --- | --- | --- | --- | --- |
| C[C@@](Cc1ccc(O)c(O)c1)(NN)C(=O)O |  | Parkinson's disease patients, plasma | oral, high levodopa AUC subgroup (11.5 µmol·h/L), median | 2 h |
| CCCCC1=NC2(CCCC2)C(=O)N1Cc1ccc(-c2ccccc2S(=O)(=O)Nc2noc(C)c2C)c(COCC)c1 |  | healthy adult volunteers, plasma | oral, 50 mg, 14 days repeated dosing, fasted, crushed tablet | 2.02 h |
| CCCCCCCCCCCCCCCC(=O)N[C@@H](CCC(=O)NCCCC[C@@H]1NC(=O)[C@H]([C@@H](C)CC)NC(=O)[C@@H](NC(=O)[C@@H]2CCCN2C(=O)[C@H](Cc2ccccc2)NC(=O)[C@H](Cc2c[nH]cn2)NC(=O)[C@@H](NC(=O)[C@H](CC(=O)O)NC(=O)CC(C)C)[C@@H](C)O)CSSC[C@@H](C(=O)N[C@@H](CCCCN)C(N)=O)NC(=O)CNC(=O)[C@H](CCCCN)NC(=O)[C@H](CO)NC(=O)[C@H](CCCNC(=N)N)NC(=O)[C@@H]2CCCN2C(=O)[C@H](CCC(=O)O)NC(=O)[C@H](Cc2ccccc2)NC1=O)C(=O)O |  | healthy volunteers, plasma | subcutaneous, 20 mg single, lyophilised formulation, median | 24 h |
| CS(=O)(=O)c1ccc([C@@H](O)[C@@H](CF)NC(=O)C(Cl)Cl)cc1 |  | Arbor Acres chickens, plasma | oral, 20 mg/kg, together with: quercetin 40 mg/kg pretreatment | 0.75 ± 0.18 h |
| C[C@H]1CN(C(=O)CC#N)[C@]12CCN(c1ncnc3[nH]ccc13)C2 |  | healthy adults, plasma | oral, 12 mg single dose, mean | 1.1 h |
| CN(CCC(=O)O)C(=O)c1ccc2c(c1)CC[C@@H]1[C@@H]2CC[C@]2(C)C(c3cncc(F)c3)=CC[C@@H]12 |  | postmenopausal women, plasma | 60 mg twice daily, day 14, multiple dose, median | 2.03 h |
| CCCCC[C@H](O)CC[C@@H]1[C@H]2Cc3cccc(OCC(=O)O)c3C[C@H]2C[C@H]1O | LC-MS/MS | Japanese PAH patients, plasma | inhaled, 54 µg, body weight ≥56.7 kg, mean | 0.29 h |
| COc1nnc2ccc(N3CCC(c4ccc(OCCN5CCN(C)C(=O)[C@H]5C)cc4)CC3)nn12 |  | patients, plasma | oral, 20 mg twice daily, single dose, monotherapy, median | 1.02 h |
| C=C(F)C(=O)N1CCN(c2nc(OC[C@@H]3CCCN3C)nc3c2CCN(c2cccc4cccc(Cl)c24)C3)C[C@@H]1CC#N |  | cancer patients, plasma | 600 mg | 5.69 h |
| CO[C@H]1CC[C@H](N2C(=O)CNc3ncc(-c4ccc(C(C)(C)O)nc4)nc32)CC1 |  | patients, plasma | oral, 60 mg, day -1, median | 1.5 h |
| CC(=O)Nc1ccc(C[C@H](NC(=O)[C@H](CO)NC(=O)[C@@H](Cc2cccnc2)NC(=O)[C@@H](Cc2ccc(Cl)cc2)NC(=O)[C@@H](Cc2ccc3ccccc3c2)NC(C)=O)C(=O)N[C@H](Cc2ccc(NC(C)=O)cc2)C(=O)N[C@@H](CC(C)C)C(=O)N[C@@H](CCCCNC(C)C)C(=O)N2CCC[C@H]2C(=O)N[C@H](C)C(N)=O)cc1 |  | healthy men, fasted, serum | oral, 40 mg single dose | 2.3 ± 1.1 h |
| COc1cc(Nc2ncc3c(n2)-c2ccc(Cl)cc2C(c2c(F)cccc2OC)=NC3)ccc1C(=O)O |  | cancer patients, plasma | oral, 40 mg, cycle 1 day 1, together with: pembrolizumab | 3.5 h |
| CCNC(=O)[C@@H]1CCCN1C(=O)[C@H](CCCNC(=N)N)NC(=O)[C@H](CC(C)C)NC(=O)[C@@H](CC(C)C)NC(=O)[C@H](Cc1ccc(O)cc1)NC(=O)[C@H](CO)NC(=O)[C@H](Cc1c[nH]c2ccccc12)NC(=O)[C@H](Cc1c[nH]cn1)NC(=O)[C@@H]1CCC(=O)N1 |  | healthy female volunteers | oral, 1 mg single dose, enteric-coated permeation-enhanced formulation | 2.24 ± 0.38 h |
| CNC(=O)c1ccc(-c2cnc3ncc(Cc4ccc5ncccc5c4)n3n2)cc1F |  | Japanese patients, plasma | oral, 400 mg twice daily, cycle 1 day 1, fasting | 1.93 h |
| N#Cc1cccc(-c2ccc3ncc(-c4cc(F)cc(F)c4)c(N4CCC(N)CC4)c3c2)c1O | item: parent compound | healthy male, plasma | oral, 20 mg, median | 1 h |
| CC(F)(F)c1nc2nc(CO)cc(Nc3ccc(S(F)(F)(F)(F)F)cc3)n2n1 | LC-MS/MS, non-compartmental | malaria patients | 400 mg of parent drug, median | 113 h |
| CC(C)(CO)c1cc2cc(NC(=O)C3(c4ccc5c(c4)OC(F)(F)O5)CC3)c(F)cc2n1C[C@@H](O)CO |  | human, plasma | oral, standard ETI dose | 2 h |
| CCc1nc(C(N)=O)c(Nc2ccc(N3CCC(N4CCN(C)CC4)CC3)c(OC)c2)nc1NC1CCOCC1 |  | Japanese patients, plasma | oral, 40 mg, cycle 1 day 28, multiple doses, median | 3.92 h |
| CN[C@H](CC(C)C)C(=O)N[C@H]1C(=O)N[C@@H](CC(N)=O)C(=O)N[C@H]2C(=O)N[C@H]3C(=O)N[C@H](C(=O)N[C@H](C(=O)O)c4cc(O)cc(O)c4-c4cc3ccc4O)[C@H](O)c3ccc(c(Cl)c3)Oc3cc2cc(c3O[C@@H]2O[C@H](CO)[C@@H](O)[C@H](O)[C@H]2O[C@H]2C[C@](C)(N)[C@H](O)[C@H](C)O2)Oc2ccc(cc2Cl)[C@H]1O |  | guinea pig, tissue cage fluid | intraperitoneal, 15 mg/kg, single dose | 3 h |
| Oc1ccc([C@@H](O)c2cc(-c3ncnc4cc(N5CCOCC5)ccc34)c(F)cc2Cl)nn1 | median | healthy volunteers, plasma | oral, 100 mg, fasted tablet | 1 h |
| O=C(c1cccnc1-c1ccncc1)N1CCC(O)(Cc2ccccc2)CC1 |  | healthy Japanese adults, plasma | oral, 300 mg twice daily, day 21, median | 0.5 h |
| N[C@@H](CC(=O)N1CCc2c(nc(C(F)(F)F)nc2C(F)(F)F)C1)CN1CC(F)(F)CCC1=O |  | healthy Korean adults, fasted, plasma | oral, 50 mg single dose, separate tablets, median, together with: enavogliflozin 0.3 mg | 2 h |
| C=CC(=O)NC1CCN(c2ncc3ncnc(Nc4ccc(Oc5ccc6c(c5)ncn6C)c(C)c4)c3n2)CC1 |  | healthy male volunteers, plasma | intravenous infusion, 100 µg, 15 min infusion, [14C] microtracer | 0.233 h |
| CCc1nc2c(C)cc(N3CCN(CC(=O)N4CC(O)C4)CC3)cn2c1N(C)c1nc(-c2ccc(F)cc2)c(C#N)s1 |  | healthy volunteers, fed, plasma | oral, 300 mg single dose, day 1, capsule | 2 h |
| CN(C)C(=O)c1cc2cnc(Nc3ccc(N4CCNCC4)cn3)nc2n1C1CCCC1 |  | patients, plasma | oral, steady state, median, together with: letrozole | 3.62 h |
| Cc1ccc(NC(=O)c2ccc(CN3CCN(C)CC3)cc2)cc1Nc1nccc(-c2cncc(-c3oncc3C)c2)n1 |  | Parkinson's disease patients, plasma | oral, 50 mg/day, 7 days, steady state | 3.6 ± 1.4 h |
| COc1c(O)cc(C(=O)O)cc1O |  | male Ross broilers, serum | intravenous, 0.49 mg/kg gallic acid | 0.24 h |
| C[C@H]1[C@H]2N(C(=O)CN(C)N2C(=O)NCc2ccccc2)[C@@H](Cc2ccc(OP(=O)(O)O)cc2)C(=O)N1Cc1cccc2cccnc12 |  | patients, plasma | intravenous infusion, 140 mg/m2 over 4 h, median | 1 h |
| CCOc1c([C@H](C)n2nc(C)c3c(N)ncnc32)cc(Cl)c(F)c1[C@@H]1CNC(=O)C1 |  | patients with indolent lymphoma, plasma | oral, 30 mg, day 15, monotherapy | 1 h |
